Published values gathered from unrelated publications.
Values joined by “and” are separate records of one study, mostly repeats; a detail may differ.
Target: Serine/threonine-protein kinase Sgk2 (SGK2, Homo sapiens, UniProt Q9HBY8)
Sequence (Q9HBY8 1-367, as in one of the studies): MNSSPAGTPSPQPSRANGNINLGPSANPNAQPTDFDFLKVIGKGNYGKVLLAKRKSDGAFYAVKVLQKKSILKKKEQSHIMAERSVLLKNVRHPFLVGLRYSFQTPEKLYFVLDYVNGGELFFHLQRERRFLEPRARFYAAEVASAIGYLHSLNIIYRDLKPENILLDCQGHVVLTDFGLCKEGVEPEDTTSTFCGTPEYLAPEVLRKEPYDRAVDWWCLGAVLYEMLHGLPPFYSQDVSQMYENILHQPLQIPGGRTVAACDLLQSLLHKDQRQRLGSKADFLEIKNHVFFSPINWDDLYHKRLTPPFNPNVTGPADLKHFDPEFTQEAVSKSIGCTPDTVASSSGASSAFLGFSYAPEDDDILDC

Structure (SMILES) | test | test system | setting | how to read | endpoint | result
Cc1cnc2nc1Nc1cccc(c1)COC/C=C/COCc1cc(ccc1OCCN1CCOCC1)N2 | binding, competition with immobilised ligand | – | 0.1 µM | – | remaining binding | 90%
COc1cc(Nc2nc(C)cc(-c3cnn4nc(OC)ccc34)n2)cc(C(F)(F)F)c1 | binding, competition with immobilised ligand | – | 1 µM | – | remaining binding | 78%
C=CC(=O)Nc1cccc(-c2cnc3[nH]cc(C(=O)NC(C)(C)C)c3n2)c1 | kinase activity | – | 0.1 µM | – | inhibition | 2% and 5%
CCn1cc(C(=O)O)c(=O)c2c(N)c(F)c(NC3CCCCC3)cc21 | kinase activity | – | 0.1 µM, added: ATP at Km | – | inhibition | 2.3%
NC(=O)C[C@H]1CCc2sc3ncnc(O[C@H]4CC[C@H](N5CCOCC5)CC4)c3c21 | enzyme activity, inhibitor | – | 10 µM | – | inhibition | 7%
O=C=[N][Ru-4]123([n]4c5ccc(O)cc5c5c6c(c7cc(F)c[n+]1c7c54)C(=O)NC6=O)[S+]1CC[S+]2CC[S+]3CC1 (centres unmarked) | enzyme activity | – | 100 nM, human enzyme, added: 10 µM ATP | relative to: untreated | remaining activity | 53%
COc1ccc(NC(=O)Nc2ccc3c(c2)C(=O)N(C(C)CO)CC(C)C(CN(C)Cc2ccc4c(c2)OCO4)O3)cc1 (centres unmarked) | kinase activity, KinaseProfiler | – | 0.03 µM, species human | relative to: control | remaining activity | 105%
COc1c(OCCCN2CCOCC2)ccc2c1N=C(NC(=O)c1cnc(N)nc1)N1CCN=C21 | kinase activity, inhibitor | – | 1 µM | relative to: untreated control | remaining activity | 78%
Cc1ccc(C(=O)Nc2ccc(CN3CCN(C)CC3)c(C(F)(F)F)c2)cc1C#Cc1cnc2cccnn12 | target engagement, NanoBRET | human cells | – | – | Hill slope | 0.111
O=C(Cc1ccc(OCc2ccccc2)cc1)NC1(C(=O)O)CCN(C(=O)c2ccc(-c3cccc(Cl)c3)cc2)CC1 | enzyme activity, inhibitor | – | 10 µM | – | activity vs control | 127%
CN1CC[C@@H](COc2cnc(C#N)cc2-c2ccn3nc(NC(=O)C4CC4)cc3c2)C1 | enzyme activity, inhibitor | – | 1 µM | – | inhibition | 3%
Nc1ncc(-c2cc(-c3cnn(CC(F)(F)F)c3)ncc2F)nc1C(=O)NC1CNCC(F)C1 (centres unmarked) | enzyme activity | – | 1 µM | relative to: DMSO control | remaining activity | 98.2%
C=CC(=O)N1CCCC(n2c(=O)c3ncccc3n(Cc3ccc(Oc4ccccc4)cc3)c2=O)C1 (centres unmarked) | cell-free assay, competition with immobilised ligand | – | 1 µM | – | remaining binding | 99%
Cc1cccc(O[C@H]2CCC[C@@H](C(C)CNCc3ccncc3)C2)c1 (relative stereo) | enzyme activity, inhibitor | – | 10 µM | – | inhibition | -16%
